Results collected from several papers.
Protocols differ between the studies behind these lines. Numbers after ± are the reported error.
Nectin-4 extracellular domain: Nectin-4, extracellular domain (Homo sapiens, UniProt Q96NY8)
UniProt Q96NY8, sequence (whole entry, looked up): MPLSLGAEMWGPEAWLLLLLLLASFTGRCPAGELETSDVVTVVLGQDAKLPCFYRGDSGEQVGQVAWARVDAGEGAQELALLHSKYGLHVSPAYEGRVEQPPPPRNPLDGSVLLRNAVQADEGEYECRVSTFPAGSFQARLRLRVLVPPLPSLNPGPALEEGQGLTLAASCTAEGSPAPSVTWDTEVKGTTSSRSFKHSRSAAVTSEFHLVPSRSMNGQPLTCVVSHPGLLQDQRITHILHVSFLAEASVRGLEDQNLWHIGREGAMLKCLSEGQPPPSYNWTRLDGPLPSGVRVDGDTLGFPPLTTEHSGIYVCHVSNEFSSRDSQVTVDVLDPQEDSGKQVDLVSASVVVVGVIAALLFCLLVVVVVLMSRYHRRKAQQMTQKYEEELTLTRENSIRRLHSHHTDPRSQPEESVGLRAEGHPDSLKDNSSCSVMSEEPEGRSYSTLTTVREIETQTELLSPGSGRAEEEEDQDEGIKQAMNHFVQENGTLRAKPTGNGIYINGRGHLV
UniProt Q14974, sequence (whole entry, looked up): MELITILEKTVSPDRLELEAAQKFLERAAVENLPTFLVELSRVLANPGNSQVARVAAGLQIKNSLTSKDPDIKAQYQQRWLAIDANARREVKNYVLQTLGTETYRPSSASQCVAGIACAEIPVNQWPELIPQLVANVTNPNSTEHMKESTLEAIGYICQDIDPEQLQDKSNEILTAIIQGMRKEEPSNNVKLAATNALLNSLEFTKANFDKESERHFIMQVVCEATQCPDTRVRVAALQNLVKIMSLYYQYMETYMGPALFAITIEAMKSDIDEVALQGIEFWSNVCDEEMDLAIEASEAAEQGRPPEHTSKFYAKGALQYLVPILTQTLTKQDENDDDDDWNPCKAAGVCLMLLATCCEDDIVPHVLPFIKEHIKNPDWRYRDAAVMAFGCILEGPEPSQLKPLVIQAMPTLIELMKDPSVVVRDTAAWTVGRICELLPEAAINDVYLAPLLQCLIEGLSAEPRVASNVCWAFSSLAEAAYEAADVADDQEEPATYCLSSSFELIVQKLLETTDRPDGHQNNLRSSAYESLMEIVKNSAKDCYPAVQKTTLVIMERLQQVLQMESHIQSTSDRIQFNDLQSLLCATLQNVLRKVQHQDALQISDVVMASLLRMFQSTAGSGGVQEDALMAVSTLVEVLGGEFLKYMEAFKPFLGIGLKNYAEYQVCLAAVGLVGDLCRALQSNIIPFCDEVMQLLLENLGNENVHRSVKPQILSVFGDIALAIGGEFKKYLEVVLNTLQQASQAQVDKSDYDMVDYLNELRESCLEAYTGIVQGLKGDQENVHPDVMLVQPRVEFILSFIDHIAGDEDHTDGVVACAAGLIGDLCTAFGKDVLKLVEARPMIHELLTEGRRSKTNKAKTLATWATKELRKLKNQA
UniProt Q07817, sequence (whole entry, unmodified, looked up): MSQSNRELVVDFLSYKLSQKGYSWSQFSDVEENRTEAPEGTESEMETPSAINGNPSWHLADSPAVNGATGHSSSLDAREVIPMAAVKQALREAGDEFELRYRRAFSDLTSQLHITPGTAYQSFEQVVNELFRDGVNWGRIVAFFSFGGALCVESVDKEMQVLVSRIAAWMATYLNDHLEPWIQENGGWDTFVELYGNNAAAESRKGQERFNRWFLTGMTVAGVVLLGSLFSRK
UniProt Q07741, sequence (whole entry, looked up): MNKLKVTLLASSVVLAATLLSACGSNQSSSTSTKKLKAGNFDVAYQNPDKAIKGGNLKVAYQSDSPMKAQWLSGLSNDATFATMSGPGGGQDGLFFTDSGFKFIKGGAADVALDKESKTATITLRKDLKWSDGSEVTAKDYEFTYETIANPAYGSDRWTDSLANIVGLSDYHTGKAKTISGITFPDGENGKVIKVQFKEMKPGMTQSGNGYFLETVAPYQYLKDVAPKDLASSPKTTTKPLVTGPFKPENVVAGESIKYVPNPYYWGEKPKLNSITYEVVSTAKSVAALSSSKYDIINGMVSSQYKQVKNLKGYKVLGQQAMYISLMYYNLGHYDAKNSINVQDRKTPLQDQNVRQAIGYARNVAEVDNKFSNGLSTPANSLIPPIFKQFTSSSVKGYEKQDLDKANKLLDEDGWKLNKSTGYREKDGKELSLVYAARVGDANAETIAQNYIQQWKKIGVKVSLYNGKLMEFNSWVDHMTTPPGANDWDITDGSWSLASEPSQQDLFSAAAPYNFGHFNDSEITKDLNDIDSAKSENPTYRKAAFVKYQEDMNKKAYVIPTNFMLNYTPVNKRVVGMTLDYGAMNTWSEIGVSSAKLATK
UniProt Q8N8U2, sequence (whole entry, looked up): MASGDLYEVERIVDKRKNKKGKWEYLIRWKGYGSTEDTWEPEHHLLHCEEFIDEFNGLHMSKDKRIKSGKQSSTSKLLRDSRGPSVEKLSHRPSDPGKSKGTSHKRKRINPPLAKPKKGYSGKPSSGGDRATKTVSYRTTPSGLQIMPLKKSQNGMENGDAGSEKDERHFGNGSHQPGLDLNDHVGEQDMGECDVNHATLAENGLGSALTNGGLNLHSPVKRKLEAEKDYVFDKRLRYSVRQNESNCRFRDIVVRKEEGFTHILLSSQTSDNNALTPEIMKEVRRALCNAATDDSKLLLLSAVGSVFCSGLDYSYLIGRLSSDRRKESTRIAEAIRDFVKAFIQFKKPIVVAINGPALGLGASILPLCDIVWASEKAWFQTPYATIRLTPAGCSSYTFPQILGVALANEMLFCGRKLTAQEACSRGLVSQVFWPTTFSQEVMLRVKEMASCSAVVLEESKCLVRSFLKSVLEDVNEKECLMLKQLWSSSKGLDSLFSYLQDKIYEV
UniProt P21564, sequence (whole entry, unmodified, looked up): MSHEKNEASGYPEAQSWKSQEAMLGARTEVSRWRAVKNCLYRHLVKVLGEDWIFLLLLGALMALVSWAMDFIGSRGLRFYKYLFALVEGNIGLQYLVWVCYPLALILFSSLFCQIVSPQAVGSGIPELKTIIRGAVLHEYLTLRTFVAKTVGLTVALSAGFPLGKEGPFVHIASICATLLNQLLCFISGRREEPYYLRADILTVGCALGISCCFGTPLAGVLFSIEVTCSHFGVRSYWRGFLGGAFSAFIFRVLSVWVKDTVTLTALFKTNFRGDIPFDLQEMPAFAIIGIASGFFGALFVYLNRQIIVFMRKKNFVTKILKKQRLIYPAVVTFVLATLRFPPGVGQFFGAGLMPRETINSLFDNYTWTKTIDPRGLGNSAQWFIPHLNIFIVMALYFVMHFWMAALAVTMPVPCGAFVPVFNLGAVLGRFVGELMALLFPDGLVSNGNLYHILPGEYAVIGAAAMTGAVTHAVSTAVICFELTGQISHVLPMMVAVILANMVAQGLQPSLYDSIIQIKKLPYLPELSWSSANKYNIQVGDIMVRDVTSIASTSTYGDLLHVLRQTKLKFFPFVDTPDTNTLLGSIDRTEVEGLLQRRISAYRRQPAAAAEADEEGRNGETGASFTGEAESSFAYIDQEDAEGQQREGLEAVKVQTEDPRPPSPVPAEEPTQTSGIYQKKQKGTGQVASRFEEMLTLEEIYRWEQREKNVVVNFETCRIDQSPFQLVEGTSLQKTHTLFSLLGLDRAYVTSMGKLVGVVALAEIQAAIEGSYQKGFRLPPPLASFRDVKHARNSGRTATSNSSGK
UniProt Q9HB29, sequence (whole entry, looked up): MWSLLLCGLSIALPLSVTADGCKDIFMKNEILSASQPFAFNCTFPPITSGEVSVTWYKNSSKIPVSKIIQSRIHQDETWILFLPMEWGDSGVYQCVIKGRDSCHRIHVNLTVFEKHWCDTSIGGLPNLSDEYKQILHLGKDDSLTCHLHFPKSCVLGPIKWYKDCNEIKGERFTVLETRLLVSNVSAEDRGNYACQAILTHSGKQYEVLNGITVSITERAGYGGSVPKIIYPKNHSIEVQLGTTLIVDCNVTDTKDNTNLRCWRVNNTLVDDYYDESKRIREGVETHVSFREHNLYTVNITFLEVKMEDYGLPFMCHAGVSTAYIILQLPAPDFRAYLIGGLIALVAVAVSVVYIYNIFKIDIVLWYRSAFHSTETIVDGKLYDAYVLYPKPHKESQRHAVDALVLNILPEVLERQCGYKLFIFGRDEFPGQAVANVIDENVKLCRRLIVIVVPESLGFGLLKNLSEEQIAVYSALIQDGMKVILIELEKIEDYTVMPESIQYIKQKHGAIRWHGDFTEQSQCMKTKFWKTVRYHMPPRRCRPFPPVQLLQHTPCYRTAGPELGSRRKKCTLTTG
UniProt P07492, sequence (whole entry, looked up): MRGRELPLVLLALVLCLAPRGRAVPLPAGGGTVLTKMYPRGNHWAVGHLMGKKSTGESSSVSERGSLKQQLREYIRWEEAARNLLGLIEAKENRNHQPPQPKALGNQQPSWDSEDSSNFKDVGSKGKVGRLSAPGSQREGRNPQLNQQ
UniProt Q9UER7, sequence (whole entry, looked up): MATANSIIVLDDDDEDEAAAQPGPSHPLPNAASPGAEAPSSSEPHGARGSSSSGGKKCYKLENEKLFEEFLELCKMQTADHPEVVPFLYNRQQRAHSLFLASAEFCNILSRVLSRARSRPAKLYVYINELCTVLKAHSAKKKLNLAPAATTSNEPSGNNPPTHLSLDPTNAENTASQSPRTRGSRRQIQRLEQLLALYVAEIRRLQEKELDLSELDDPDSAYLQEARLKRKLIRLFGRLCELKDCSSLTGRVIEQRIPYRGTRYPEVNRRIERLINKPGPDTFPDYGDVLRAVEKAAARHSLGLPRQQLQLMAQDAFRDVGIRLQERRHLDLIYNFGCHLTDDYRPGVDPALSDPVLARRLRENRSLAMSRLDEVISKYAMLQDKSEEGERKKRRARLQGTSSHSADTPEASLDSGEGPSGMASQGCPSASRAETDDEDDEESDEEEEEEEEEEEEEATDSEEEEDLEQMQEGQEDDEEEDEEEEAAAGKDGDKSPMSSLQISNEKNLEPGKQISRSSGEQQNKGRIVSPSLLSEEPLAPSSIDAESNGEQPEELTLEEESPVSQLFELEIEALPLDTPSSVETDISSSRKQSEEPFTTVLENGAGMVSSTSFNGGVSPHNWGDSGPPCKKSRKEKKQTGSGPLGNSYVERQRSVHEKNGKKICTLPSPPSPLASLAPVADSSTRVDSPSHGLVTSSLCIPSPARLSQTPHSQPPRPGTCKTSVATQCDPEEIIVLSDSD

The Kd of `CC[C@H](C)[C@H](NC(=O)[C@H](CCC(=O)O)NC(=O)[C@H](CCC(=O)O)NC(=O)[C@H](CC(C)C)NC(=O)[C@H](CC(C)C)NC(=O)[C@H](CCSC)NC(=O)[C@]1(C)CCCC=CCCC[C@](C)(NC(=O)[C@H](CC(N)=O)NC(=O)[C@H](CCC(=O)O)NC(=O)[C@@H]2CCCN2C(=O)[C@H](CC(=O)O)NC(=O)[C@H](CC(N)=O)NC(=O)[C@H](CC(=O)O)NC(=O)[C@H](CC(=O)O)NC(=O)[C@@H](N)CO)C(=O)N[C@@H]([C@@H](C)CC)C(=O)N[C@@H](C)C(=O)N[C@@H](CCCCN)C(=O)N1)C(=O)N[C@@H](CCCCN)C(=O)N[C@@H](C)C(=O)N[C@@H](CC(N)=O)C(=O)N[C@@H](CC(C)C)C(=O)N[C@@H](CO)C(=O)O` is reported as 0.09 µM (Death domain-associated protein 6 (Homo sapiens, UniProt Q9UER7); binding, ITC; pH 7.5).
The Kd of `CCN(CCCC[C@H](NC(=O)[C@H](Cc1ccc(OC)c(OC)c1)NC(=O)[C@H](C)NC(=O)[C@H](CC1CCCCC1)NC(=O)c1ccc(Br)c(N)c1)C(=O)N[C@@H](CO)C(=O)OC)C(C)C` is reported as about 1 µM (CDYL2 (Homo sapiens, UniProt Q8N8U2); binding, ITC).
`CC[C@H](C)[C@@H]1NC(=O)[C@@H]2CCCN2C(=O)[C@H](Cc2c[nH]c3ccccc23)NC(=O)[C@H](CO)NC(=O)[C@H](Cc2c[nH]c3ccccc23)NC(=O)[C@H](CC(N)=O)NC(=O)[C@H](CCCCN)NC(=O)[C@H](CCSC)NC(=O)[C@@H]2CSCCC(=O)N3CN(CN(C3)C(=O)CCSC[C@H](NC(=O)[C@H](C)N)C(=O)N3CCC[C@H]3C(=O)N[C@@H](Cc3ccccc3)C(=O)NCC(=O)N2)C(=O)CCSC[C@@H](C(=O)N[C@H](C(=O)N[C@@H](CC(N)=O)C(=O)N[C@@H](CCCCN)C(=O)N(C)CC(=O)N(C)CC(=O)N(C)CC(=O)N(C)CC(=O)N(C)CC(=O)N(C)CC(=O)N[C@@H](CCCCNC(=O)c2ccc(C(=O)O)c(-c3c4ccc(=O)cc-4oc4cc(O)ccc34)c2)C(N)=O)[C@@H](C)O)NC(=O)[C@H](Cc2c[nH]c3ccccc23)NC1=O` has a Kd of 0.0194 µM (Nectin-4 extracellular domain; binding, fluorescence polarization).
`CC[C@H](C)[C@H](NC(=O)[C@H](CS)NC(=O)[C@H](CCC(N)=O)NC(=O)[C@H](CC(C)C)NC(=O)[C@H](CCCCN)NC(=O)[C@H](CCCNC(=N)N)NC(=O)[C@H](C)NC(=O)[C@@H](NC(=O)[C@H](CCC(N)=O)NC(=O)[C@@H](NC(=O)[C@H](CCC(=O)O)NC(=O)[C@H](C)NC(=O)[C@H](CCC(N)=O)NC(=O)[C@@H](N)Cc1c[nH]cn1)C(C)C)[C@@H](C)CC)C(=O)N[C@@H](C)C(=O)N[C@@H](CC(=O)O)C(=O)N[C@@H](CCC(N)=O)C(=O)N[C@@H](Cc1ccccc1)C(=O)N[C@@H](Cc1c[nH]cn1)C(=O)N[C@@H](CCCNC(=N)N)C(=O)N[C@@H](CC(C)C)C(=O)N[C@@H](Cc1c[nH]cn1)C(=O)N[C@H](C(=O)N[C@@H](CCC(N)=O)C(=O)N[C@@H](CCC(N)=O)C(=O)O)C(C)C` gave a Kd of over 100 µM (BCL2L1 (Homo sapiens, UniProt Q07817, R100A); fluorescence polarization; fluorescently labelled compound).
For `C[C@@H](O)[C@H](NC(=O)[C@H](CCCCN)NC(=O)CCCC(=O)O)C(=O)NCC(=O)N[C@@H](CC(=O)O)C(=O)N[C@@H](CCC(=O)O)C(=O)N[C@@H](CCCCN)C(=O)N[C@@H](CCCCN)C(=O)NCC(=O)NCC(=O)N[C@@H](Cc1ccc(O)cc1)C(=O)NCC(=O)N[C@@H](CCCNC(=N)N)C(=O)N[C@@H](CCCCN)C(=O)N[C@@H](CCCCN)C(=O)N[C@@H](CCCNC(=N)N)C(=O)N[C@@H](CCCNC(=N)N)C(=O)N[C@@H](CCC(N)=O)C(=O)N[C@@H](CCCNC(=N)N)C(=O)N[C@@H](CCCNC(=N)N)C(=O)N[C@@H](CCCNC(=N)N)C(N)=O`, the Kd was 30 ± 5.44 µM (HSP90AA1 (Homo sapiens, UniProt P07900); binding, field-effect biosensor; pH 7.4).
`O=C(O)CN(CC(=O)O)CP(=O)(O)O` gave a Kd of 0.056 ± 0.015 µM (Zn2+; binding, ITC; pH 7.0, 25 °C).
`CN=C(NC)NCCC[C@H](NC(=O)[C@H](C)NC(=O)[C@@H](NC(=O)[C@H](CCC(N)=O)NC(=O)[C@H](CCCC[N+](C)(C)C)NC(=O)[C@@H](NC(=O)[C@H](CCCNC(=N)N)NC(=O)[C@H](C)N)[C@@H](C)O)[C@@H](C)O)C(=O)N[C@@H](CCCCN)C(=O)N[C@@H](CO)C(=O)O` gave a Kd of 0.066 µM (Spindlin-1 (SPIN1, Homo sapiens, UniProt Q9Y657); binding, ITC; pH 7.5).
`CC[C@H](C)[C@H](NC(=O)[C@H](Cc1c[nH]cn1)NC(=O)[C@H](CC(=O)O)NC(=O)[C@H](CCCNC(=N)N)NC(=O)[C@H](CO)NC(=O)[C@H](Cc1ccc(O)cc1)NC(=O)[C@H](CC(=O)O)NC(=O)[C@@H](NC(=O)[C@@H](N)CO)C(C)C)C(=O)N[C@@H](C)C(=O)N[C@@H](CO)C(=O)N[C@@H](CCC(=O)O)C(=O)O` gave a Kd of 0.042 µM (Gastrin-releasing peptide (Homo sapiens, UniProt P07492); biolayer interferometry).
With `CC[C@H](C)[C@H](NC(=O)[C@H](Cc1cnc[nH]1)NC(=O)[C@H](CCCCNC(=O)[C@@H](NC(=O)[C@H](CCCCN)NC(=O)[C@H](Cc1ccccc1)NC(=O)[C@H](CCCCNC(=O)[C@H](CC(C)C)NC(=O)[C@@H]1CCCN1C(=O)[C@H](CCCCN)NC(=O)C[C@@H]1O[C@@H](C)[C@@H](O)[C@@H](O)[C@@H]1O)NC(=O)[C@H](CC(C)C)NC(=O)[C@@H]1CCCN1C(=O)[C@H](CCCCN)NC(=O)C[C@@H]1O[C@@H](C)[C@@H](O)[C@@H](O)[C@@H]1O)[C@@H](C)CC)NC(=O)[C@@H](NC(=O)[C@H](CCCCN)NC(=O)[C@H](Cc1ccccc1)NC(=O)[C@H](CCCCNC(=O)[C@H](CC(C)C)NC(=O)[C@@H]1CCCN1C(=O)[C@H](CCCCN)NC(=O)C[C@@H]1O[C@@H](C)[C@@H](O)[C@@H](O)[C@@H]1O)NC(=O)[C@H](CC(C)C)NC(=O)[C@@H]1CCCN1C(=O)[C@H](CCCCN)NC(=O)C[C@@H]1O[C@@H](C)[C@@H](O)[C@@H](O)[C@@H]1O)[C@@H](C)CC)C(N)=O` the Kd was 0.066 µM (lecB (Pseudomonas aeruginosa, UniProt Q9HYN5); binding, ITC; pH 7.5).
`C=C(C)C12OC3(c4ccccc4)OC1C1C(O)C(Br)(CO)C(O)C4(O)C(=O)C(C)=CC4C1(O3)C(C)C2OC(=O)c1ccccc1` (stereo not shown) has a Kd of 0.201 µM (Importin subunit beta-1, C-terminal domain (550–876) (KPNB1, Homo sapiens, UniProt Q14974)).
With `CC(C)[C@@H]1NC(=O)[C@H](Cc2ccccc2)NC(=O)CSC[C@@H](C(N)=O)NC(=O)[C@H](CCC(=O)O)NC(=O)[C@H](CO)NC(=O)[C@H](Cc2c[nH]c3ccccc23)NC(=O)[C@H](C(C)C)NC(=O)[C@H](C(C)C)NC(=O)[C@H](Cc2ccc(O)cc2)NC(=O)[C@H](CC(=O)O)NC(=O)[C@H](Cc2c[nH]c3ccccc23)NC(=O)[C@H](Cc2ccc(O)cc2)NC(=O)[C@H](Cc2c[nH]c3ccccc23)NC(=O)[C@H](CCC(=O)O)NC1=O` the Kd was 0.36 µM (Interleukin-1 receptor-like 2, D1-D2 domains (IL1RL2, Homo sapiens, UniProt Q9HB29); SPR; IL-36R D1-D2 with spesolimab Fab).
`O=C(O)COc1ccc(Cl)cc1` gave a Kd of about 15000 µM (Chloride channel protein (Torpedo marmorata, UniProt P21564, C212S); single-channel current, blocker, inside-out patch clamp; -100 and -80 mV).
`N=C(N)NCCC[C@H](NC(=O)[C@H](Cc1ccccc1)NC(=O)[C@@H]1CCCN1C(=O)[C@H](CO)NC(=O)[C@H](Cc1ccccc1)NC(=O)CNC(=O)[C@@H]1CCCN1C(=O)[C@@H]1CCCN1C(=O)[C@@H](N)CCCNC(=N)N)C(=O)N[C@@H](CCCCNS(=O)(=O)c1ccc(C2=c3cc4c5c(c3Oc3c2cc2c6c3CCCN6CCC2)CCC[N+]=5CCC4)c(S(=O)(=O)[O-])c1)C(=O)O` gave a Kd of 10 ± 0.5 µM (Oligopeptide-binding protein OppA (oppA, Lactococcus lactis subsp. lactis, UniProt Q07741); binding, fluorescence anisotropy; pH 5, 18 °C, added: dye-labelled peptide).
`CCC(C(=O)OC)C1N=C(c2ccc(Cl)cc2)c2cc(OC)ccc2-n2c(C)nnc21` (stereo not shown) gave a Kd of 9 µM (Bromodomain-containing protein 2, BD1 (BRD2, Homo sapiens, UniProt P25440); binding, ITC).
`CSCC[C@H](NC(C)=O)C(=O)N[C@H]1CSCc2cc3cc(c2)CSC[C@@H](C(=O)N[C@H](C(=O)N[C@@H](C)C(=O)N[C@@H](Cc2ccc(O)cc2)C(=O)N[C@@H](CCCCN)C(=O)N[C@@H](Cc2ccc(O)cc2)C(=O)NCC(=O)N[C@@H](CO)C(=O)NCC(=O)N[C@@H](CO)C(=O)NCC(=O)N[C@@H](CO)C(=O)N[C@@H](CC(=O)O)C(=O)N[C@@H](Cc2ccc(O)cc2)C(=O)N[C@@H](CCCCN)C(=O)N[C@@H](CC(=O)O)C(=O)N[C@@H](CC(=O)O)C(=O)N[C@@H](CC(=O)O)C(=O)N[C@@H](CC(=O)O)C(=O)N[C@@H](CCCCN)C(N)=O)[C@@H](C)O)NC(=O)[C@H](Cc2ccccc2)NC(=O)[C@H](CCCCN)NC(=O)[C@H](CSC3)NC(=O)[C@H](Cc2ccccc2)NC(=O)[C@H](CC(N)=O)NC(=O)[C@H](CC(C)C)NC(=O)[C@H]([C@@H](C)O)NC1=O` gave a Kd of over 10 µM (FGFR1 (Homo sapiens, UniProt P11362); binding, BLI).
With `CC(C)C[C@@H]1NC(=O)[C@H](Cc2ccc(O)cc2)NC(=O)[C@H](CCCNC(=N)N)NC(=O)[C@H](C(C)C)NC(=O)[C@@H]2CCCN2C(=O)[C@H](Cc2ccccc2)NC(=O)[C@H](C)NC(=O)[C@H](CC(N)=O)NC(=O)[C@H](Cc2ccc(OS(=O)(=O)F)cc2)NC(=O)[C@@H](Cc2ccccc2)NC(=O)CSC[C@@H](C(=O)NCCOCCOCC(=O)NCCOCCOCC(=O)N[C@@H](CCCCN=[N+]=[N-])C(N)=O)NC(=O)[C@H](Cc2c[nH]c3ccccc23)NC(=O)[C@H](CCCNC(=N)N)NC(=O)[C@H](CCCCN)NC1=O` the Kd was 6.4 µM (Nectin-4 extracellular domain; covalent binder, SPR single-cycle kinetics; PBS-T; 30 s contact, 25 °C).

A few entries again:
`CSCC[C@H](NC(C)=O)C(=O)N[C@H]1CSCc2cc3cc(c2)CSC[C@@H](C(=O)N[C@H](C(=O)N[C@@H](C)C(=O)N[C@@H](Cc2ccc(O)cc2)C(=O)N[C@@H](CCCCN)C(=O)N[C@@H](Cc2ccc(O)cc2)C(=O)NCC(=O)N[C@@H](CO)C(=O)NCC(=O)N[C@@H](CO)C(=O)NCC(=O)N[C@@H](CO)C(=O)N[C@@H](CC(=O)O)C(=O)N[C@@H](Cc2ccc(O)cc2)C(=O)N[C@@H](CCCCN)C(=O)N[C@@H](CC(=O)O)C(=O)N[C@@H](CC(=O)O)C(=O)N[C@@H](CC(=O)O)C(=O)N[C@@H](CC(=O)O)C(=O)N[C@@H](CCCCN)C(N)=O)[C@@H](C)O)NC(=O)[C@H](Cc2ccccc2)NC(=O)[C@H](CCCCN)NC(=O)[C@H](CSC3)NC(=O)[C@H](Cc2ccccc2)NC(=O)[C@H](CC(N)=O)NC(=O)[C@H](CC(C)C)NC(=O)[C@H]([C@@H](C)O)NC1=O` gave a Kd of over 10 µM (FGFR1 (Homo sapiens, UniProt P11362); binding, BLI).
